Assay results from different studies.
Numbered parts are unrelated; each lists some results of a single study.

Sample 1 — technique: protein binding microarray; form: double-stranded DNA, one strand shown; medium: in vitro; concentration: not given; baseline: not given; reading: higher = stronger binding
Target: Histone acetyltransferase KAT6A, both winged helices, GST fusion (KAT6A, Homo sapiens, UniProt Q92794, residues 1-181)
Notes: 8-mer, flanks averaged, mean of 2 arrays, mostly near background
Target sequence (chain): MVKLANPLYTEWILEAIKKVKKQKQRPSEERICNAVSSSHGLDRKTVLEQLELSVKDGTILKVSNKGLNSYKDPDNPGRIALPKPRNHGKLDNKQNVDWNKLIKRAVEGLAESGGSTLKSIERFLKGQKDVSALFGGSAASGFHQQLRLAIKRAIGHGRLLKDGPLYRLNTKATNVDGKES
Sequence	E-score
ATATCCCC	-0.1
AAGATTGC	-0.0355
CCGCGTCG	0.347
GTCCGCGA	0.174
ATCGTGAC	0.0384
CAACTCGG	-0.128
AAACCGAA	-0.0348
CTATTATA	-0.0541
GGATTCCA	-0.0356
CGATCAAC	0.053
TCGCACCA	-0.103
ACAAGTTG	-0.0819
CTCGTTGA	0.00146
TCCAGAAA	-0.0239
ACTTACGG	0.2
AAGGTCAG	-0.184
CATGGGAG	-0.0728
CTATTAGC	-0.00217
CCACCATA	-0.248
GCTCGCAC	0.161
AATGCGAC	0.2
CGGAGCGC	0.301
ATGTGGAA	0.00816
CTCGTCGC	0.0736
CGCATTAA	0.136

Sample 2 — technique: aptamer microarray, sandwich; form: DNA with 2'F-ANA; medium: in vitro; concentration: 200 nM; added: Cy3 exosite-II aptamer, 400 nM; reading: higher = stronger binding; sequence: GGTTGGTGTGGTTGG
Target: Prothrombin, mature alpha-thrombin (F2, Homo sapiens, UniProt P00734)
Notes: whole 15-mer aptamer, many near background
Modification	mean fluorescence intensity [a.u.]
2'F-ANA at 2 3 4 5 9 13 15	84.3
2'F-ANA at 1 2 3 4 5 6 11 12 15	74
2'F-ANA at 3 4 6 9 10 13 14	193
2'F-ANA at 1 3 8 9 13 15	247
2'F-ANA at 5 7 10 11 13 15	47.9
2'F-ANA at 2 5 8 9 10 13 15	48.8
2'F-ANA at 1 3 5 9 11 12	102
2'F-ANA at 1 4 9 10 12 14	45
2'F-ANA at 1 2 3 7 8 10 11 14 15	53.6
2'F-ANA at 1 4 5 9 11 12 13 15	77.9
2'F-ANA at 1 5 6 8 12 13 14	47
2'F-ANA at 1 2 3 4 5 7 14	46.5
2'F-ANA at 1 2 4 5 8 9 10 11 12 13	59.4
2'F-ANA at 1 3 4 7 8 10 12 13	77.2
2'F-ANA at 1 2 3 6 8 9 12 13	326
2'F-ANA at 1 3 6 8	355
2'F-ANA at 2 3 4 7 10 12 13	293
2'F-ANA at 1 2 5 7 12 14	43.1
2'F-ANA at 2 3 4 6 7 11 12 13 15	491
2'F-ANA at 2 4 5 7 10 11 15	47
2'F-ANA at 1 3 6 9 11 12 13 14 15	89.9
2'F-ANA at 1 4 5 8 9 10 11 14	47.7
2'F-ANA at 1 3 4 5 9 11	52.3

Sample 3 — technique: RNA Bind-n-Seq; form: RNA; medium: in vitro; concentration: not given; notes: RNA with constant flanks, ends assumed; baseline: input RNA pool; reading: higher = stronger binding
Target: RING finger protein unkempt homolog, zinc fingers 1-6, GST-SBP tag (UNK, Homo sapiens, UniProt Q9C0B0, residues 30-357)
Constant ends, left off below: GGGAGUUCUACAGUCCGACGAUC … CAACAGAGGAUUGAGCAUCA
Target sequence (chain): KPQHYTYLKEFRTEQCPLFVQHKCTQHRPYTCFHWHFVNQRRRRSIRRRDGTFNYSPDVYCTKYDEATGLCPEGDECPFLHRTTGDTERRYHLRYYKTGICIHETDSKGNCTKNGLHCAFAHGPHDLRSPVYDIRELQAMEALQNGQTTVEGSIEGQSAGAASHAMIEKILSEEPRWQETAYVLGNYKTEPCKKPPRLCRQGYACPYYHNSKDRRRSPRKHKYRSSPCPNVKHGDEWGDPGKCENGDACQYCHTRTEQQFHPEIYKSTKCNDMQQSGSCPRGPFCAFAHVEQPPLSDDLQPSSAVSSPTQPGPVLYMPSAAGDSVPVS
Sequence	bound/input enrichment [ratio]
UGUAGAUUUAUCCUAAAUUUGCUGUAGCAGUGGGGAAGAGGGACGGAUAUUUUUAAUUGAUCCGUGUUUUUUUCCUCACAUUUGACAUGACUGAUAACAGAUAAUUAAAAAAAGAGAAUA	0.276
AGAUACAGGCAAAGUUGAAUCUUCUGUCUUCCUGGCAAAAAUGGCAUAAAAACUGAGUUGCCCGCUCAAAUUCCUGGGUUUCAUGGAAUUAUGAUUGAGGCACUACCCUUGUAGUGGCCG	0.14
AUCAGUGUCGGACGCUAACACCACUUUCGCCCCUUCCCCGCCCCACACACCCUGUCUUCCCACCGGAGCAUUACCCUCUGUUGUCCAUCUGCCAUCAGAUGUCCCCACUGAAGCAUGCAU	0.414
CAGGGUGGGACCCGGGACCCGCGGCUCAGUGGCCCGCUAGCCACGUCAGCCAAGCCACUUCCGGUCCAUUUUUUAAUUUUAACAGUGCUCUUCCAUCUUGUGCAUAAGCCUGAGAUUUGG	0.782
UCUGUGAAAACUUCAGUCACAACAUCAAUUUCAGAGCCUUGGACCCAAAGGAGUUUCUACCGGUCAUCUAAUGCUUCAGAUAAAGAUAGUGAUUUACAGAAAACAUUUUUUUCGUCUUCU	0.123
ACACCCUGGUUCUGGGCCAGAGAUAAAACCAAUACCUGGUCUGGGCCCAGGGAAGAUCCCAACCGCAGGUCCAGGUUUAGGUCUAAGAAAGAAGUCUAUGUUGAAUCAAGUUCUGGAUCU	0.0934
GGUGAGCUUCAUUUUCUCCAAAUUGGAGGAACCUGUGAUGAUAUUGAUGAAGCUGAUAUACCCGUGGAUGGAUCUCUUUCUAAAGGAAUAGAACCAUCUUCAGAAGGUUCCAAACCUUUA	0.123
UUAUACCAAGUGGAGUAUGCCAUGGAAGCCAUUGGACAUGCAGGCACCUGUUUGGGGAUUUCCGCCAAUGAUGGAGUUUUGCUUGCAGCGGAGAGGCGCAACAUCCACAAGCUUCUUGAU	0.0922
CCUCUUGCCAGGAGUCCAUGUUUGUUCUACCCGAACUUUGGACUGUUAACUAGAGAAGUGACCGACUGAUGAACCUUCUAGUGUUGUCUGCUCCAUACGGGAAAUGAGCUUCAAGGCCAA	0.0781
GAUCCCUUGAUGGCCCCAGAAUCCCAUAUAUUAGCUUCUAACACCAUGGAGACCCAUAUAUCCGCAUCCAACACCAUGGACUCCCAAAUGCUAGCGUCCAACACCAUGGACUCCCAGAUG	1.41
UUGAGCAUACAUAUACAAUGUGUUUCAAAUGCUGCUUGUAAAAUUAAACCAUCAUCCCGAACCGAGUUAAUUUAUUAUAAUCAAGCUACAAAUAGGUUUUCUUAAACCAGAGAUGCACUG	0.244

Sample 4 — technique: protein-binding microarray; form: double-stranded DNA, one strand shown; medium: in vitro; concentration: 940 nM top; notes: 60-bp whole probe; added: salmon DNA 0.4 mg/ml; baseline: random background probes; reading: higher = stronger binding; constant ends, left off below: GCCTAGCAC … GTCTTGATTCGCTTGACGCTGCTG
Target: Interferon regulatory factor 5, full length, phosphomimetic (IRF5, Homo sapiens, UniProt Q13568-2, residues 1-514, S451D/S453D/S456D/S462D)
Sequence	fitted relative affinity [z-score]
TCAGTTCTGCTTCTTAGACTGTGCTAG	0.635
TTAGAACTGGGATATCGATTAGTGCTA	-0.359
TCAATTTTTTTTATTTAACTGTGCTAG	0.879
CCCCCTTTTATATTGTAAGCGTGCTAG	0.471
CTTTAGAGCAAGAACAGCCTGTGCTAG	-0.791
GACGGACTGCATCTCCTGACGTGCTAG	-0.375
GACGATATCGGGTATTGAGACGTGCTA	-0.0132
TTTCCCTAGAAGACGAAAGAGTGCTAG	0.955
TTAGATTTCGGGACAGGATTAGTGCTA	0.894
GACGGACTGGGGACTGGAGACGTGCTA	-0.265
TCATTTCTCTCTGTGACACTGTGCTAG	1.61
GACGGTATCCTTATCCCGACGTGCTAG	0.44
TTACATATCAGTTTCGATTAGTGCTAG	8.54
GACGATTTCAGTATCGTGACGTGCTAG	1.03
CCGAGAAACAGTAACCCTCTGTGCTAG	0.511
GACGGTATCGACACTGGGGCCGTGCTA	3.76
GCAGGGCTCTCTTCTGCTTCCGTGCTA	-0.219
TTAGACCTCAGACTGGATTAGTGCTAG	-0.323
TCACAAAAATGATTGGTACTGTGCTAG	-0.21
TCCCCTCTAGGTCTTCTGAAGTGCTAG	-0.185
GACGGTATCGGGTCTCGGGACGTGCTA	4.76
GACGGACTGGGGACTGGGGACGTGCTA	-0.171

Sample 5 — technique: RNA Bind-n-Seq; form: RNA; medium: in vitro; concentration: 365 nM; baseline: no-protein control; reading: higher = stronger binding
Target: RNA binding protein fox-1 homolog 2, RRM domain, GST-SBP tag (RBFOX2, Homo sapiens, UniProt O43251-10, residues 100-194)
Notes: natural RNA segment, single round, ends assumed
Constant ends, left off below: GGGAGUUCUACAGUCCGACGAUC … UGGAAUUCUCGGGUGCCAA
Construct (chain): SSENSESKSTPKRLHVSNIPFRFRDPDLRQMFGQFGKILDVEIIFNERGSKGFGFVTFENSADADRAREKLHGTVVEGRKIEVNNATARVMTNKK
Sequence	RBNS enrichment (R)
UUUAAUAUAAUUUGACAUUUGAGGAGUACCAUUGCACUAACAGGAAAUCACUGCCGGAGACAGCCCACAUUUCCUUGUAGUUGUUAUUAGGGCACAAACCACUCCACAGU	0.396
CUAAGGCUGGCCCUAUUCCAUCCUUCUUCCUAGAUGAUGGGUGUGUUAAUGGGAGGAAGGAAAGAGACCCUGCCUAGGGAAGGUUGGCUUACAGCCACCCUUGCAAGAAG	0.556
AUACCCAAUAACAAAAUCUGCCGGUUUGUCACAGUGGCUCACCUCCCAGAACUCUGAGCAAAGGGACUGUGAUGCCAAACCAGACUUUGGUCCCUUCCUGAGCCCUGCUC	0.278
UUUAAAAAGGAAACUACAUGGAGACCAUGCAAAAACAUUUAAAUAAUCCACUGUGCUGUGGCUCGCUGACCACUGUGUCCUUGUCAUGGACACCAGUGACCAUGCACAGU	0.739
AUUUAUUUCUAGAACUCACUAUCAGUGAGCAGUGCCAGAGUGUUUUCUCUUUGACCUAGAGGUUUCACAUCAUAGCAAGGAGGGAAAAGUCUCCCCAUCUCCUUACAACU	0.226
AUAUUUGAGAAACAUGAUUAGGUGAAUAAAGUAUUCUAGCAAAAGCUCUAAUCUGUAGAUCAAAAUGUAGAAGUUUGUGCAUUAUUAAGAGGAAAGUCUUGUGCCAAGAA	0.948
UAAUUUAGUGUUUUUAACUGAUACAUAAUUUAUCAAGCAGUACAUGAAAGUGUAAUAAUAAAAUGUCUAUGUAUCUUUAGUUACAUUCAAAUUUGUAACUUUAUAAACAU	0.351
UAUCACUAGGCCAUAAAAAUGGAGAUGAUGUUUUGCUUGUGUCACAGUAGGUCUUGUGCAGUGUCACUUGUAGUUGCAUGGUUACAGCGUGCUGAGUUUGACCAUUACAU	11.7
UUUACUUCACCUGAGGGAAUAGCCUCUCUACCUCGCAGAAAAUGUACCCUACCCCUCAAAUAUUGCCUUGGUUUGGUUUGGUUUGGUUUGGUUUGGGUUUGUUUUUGCCU	0.633
UGCACACAGUGGAGCUUCGGGGGAACCAGCUGGAAAGCACCCUGGGAAUCAAUCUUCCUAAGCUGAAGAACCUCUACCUGGAGAUCAAAGACGCUGGCCUUCAGACCUGA	0.37
UUGGAUCUCAUUAUCAGAAAUAUUAUUCAGCUCAAGAAAUCUGACCCCAUAUUGGAAAAUGAAUGUCCUUUAGUAUUCCUGAAGCUAAAGCUUGGGUGUCUCCUCCCAGC	0.392
AUGUUUGCAAUUAUGCUGUGAGAAUUUAAAUGUGUUAGAUGGAAAAUGCUAUUGGCAGGGAAUAAUAAUAAAAAAAAAAGAAAAUCAUUCUGUUUCCUGCAGUGGGAACU	1.7
